# Measurements from different studies.
# Each numbered part is a random draw from the data of one study; scales do not carry over between parts. Substitutions count along the parent as printed.

# Study 1
# Target: CCNA1, cyclin fold, Cln2 fusion (human)
# Method: yeast growth competition, sequencing
# Medium: yeast
# Notes: weak parent motif
# Reference: not given
# Direction: higher = stronger binding
# Parent: WEE1 docking peptide (human); HKTFRKLRLFDTP; partner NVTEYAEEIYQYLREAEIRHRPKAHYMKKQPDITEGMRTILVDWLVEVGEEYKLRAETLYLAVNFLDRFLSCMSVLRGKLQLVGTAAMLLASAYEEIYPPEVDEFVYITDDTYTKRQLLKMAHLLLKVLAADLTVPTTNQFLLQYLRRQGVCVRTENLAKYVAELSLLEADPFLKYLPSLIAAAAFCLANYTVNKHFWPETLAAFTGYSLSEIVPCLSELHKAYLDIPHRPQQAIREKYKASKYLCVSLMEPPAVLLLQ
Variant,normalised enrichment score
HKTFRKLRLFDTN [P13N],0.397
HKTFRKLRLEDTP [F10E],0.311
HKTFRKLRLKDTP [F10K],0.339
HKTFRKLRLFATP [D11A],0.192
HKTFRKKRLFDTP [L7K],0.382
HPTFRKLRLFDTP [K2P],0.218
HKKFRKLRLFDTP [T3K],-0.0681
HKTFRWLRLFDTP [K6W],0.137
HKTFRKLRPFDTP [L9P],0.158
HKTFRKLRLFDTS [P13S],0.172
HKTFRKLRHFDTP [L9H],0.066
HYTFRKLRLFDTP [K2Y],0.136
HKTFKKLRLFDTP [R5K],-0.0847
HKTFRKLHLFDTP [R8H],0.125

# Study 2
# Target: ABI1, truncated, D143A, DHFR fusion (Arabidopsis thaliana)
# Method: DHFR PCA, deep sequencing
# Medium: yeast
# Notes: methotrexate growth selection, single substitutions
# Together with: (+)-ABA 200 µM
# Reference: wild-type fitted maximum
# Direction: higher = stronger binding
# Parent: PYL1, truncated, DHFR fusion (Arabidopsis thaliana); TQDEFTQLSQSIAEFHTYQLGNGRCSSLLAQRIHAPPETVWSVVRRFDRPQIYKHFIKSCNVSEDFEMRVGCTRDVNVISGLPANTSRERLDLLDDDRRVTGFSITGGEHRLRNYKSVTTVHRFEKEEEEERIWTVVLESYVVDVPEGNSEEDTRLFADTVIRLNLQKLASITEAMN
Variant,relative binding score [%]
D144R,57.2
R99A,70.7
R46Y,46.2
I12S,41.8
R98I,112
T135I,2.23
R88A,93.5
S150L,66.7
L28G,35.8
Y18R,87.2
E151D,95.1
I133C,117
D97Q,99.2

# Study 3
# Target: Interferon regulatory factor 5, full length, phosphomimetic (IRF5, Homo sapiens, UniProt Q13568-2, residues 1-514, S451D/S453D/S456D/S462D)
# Method: protein-binding microarray
# Molecule type: double-stranded DNA, one strand shown
# Medium: in vitro
# Concentration: 940 nM top
# Notes: 60-bp whole probe
# Together with: salmon DNA 0.4 mg/ml
# Reference: random background probes
# Direction: higher = stronger binding
# Constant ends, left off below: GCCTAGCAC … GTCTTGATTCGCTTGACGCTGCTG
Strand,fitted relative affinity [z-score]
GACGGTTTCGGGTCTGGGGACGTGCTA,8.83
TTTGGTTTCGACTATCGGTTAGTGCTA,12.2
TCAGTTTTTGCTTTCTTACTGTGCTAG,1.53
TCAATTATTGTTTCCTCACTGTGCTAG,0.761
TTCGAACTGGGGACTGGATTAGTGCTA,-0.047
TTAGGTATCGGCTTCGGTTAGTGCTAG,5.37
TCCTTCCACCATCTGATCAGGTGCTAG,1.02
TCATGCATGTTTTTGACACTGTGCTAG,0.0514
TTAGGTATCCTTTTCCTTTAGTGCTAG,0.717
TCAGAGATTTTTCTCAAACTGTGCTAG,-0.32
GTCGGTATCGGGTATCGGGACGTGCTA,7.09
TTAGAACTGGCGACTGGATTAGTGCTA,-0.265
GACGGACTGGACAATCGGGACGTGCTA,-0.681
GACGGTTTCAGTCTCGAGACGTGCTAG,6.24
TTAGGACAGGACACTGGGTTAGTGCTA,-0.318
TTAGATATCAGGCTGGATTAGTGCTAG,-0.0539
GACGGTATCCTTCTCTTGACGTGCTAG,0.304
TGAGTTTTCCTTCATGTGCCGTGCTAG,1.11

# Study 4
# Target: RING finger protein unkempt homolog, zinc fingers 1-6, SBP tag (UNK, Homo sapiens, UniProt Q9C0B0, residues 30-357)
# Chain of UniProt Q9C0B0 (30-357, looked up): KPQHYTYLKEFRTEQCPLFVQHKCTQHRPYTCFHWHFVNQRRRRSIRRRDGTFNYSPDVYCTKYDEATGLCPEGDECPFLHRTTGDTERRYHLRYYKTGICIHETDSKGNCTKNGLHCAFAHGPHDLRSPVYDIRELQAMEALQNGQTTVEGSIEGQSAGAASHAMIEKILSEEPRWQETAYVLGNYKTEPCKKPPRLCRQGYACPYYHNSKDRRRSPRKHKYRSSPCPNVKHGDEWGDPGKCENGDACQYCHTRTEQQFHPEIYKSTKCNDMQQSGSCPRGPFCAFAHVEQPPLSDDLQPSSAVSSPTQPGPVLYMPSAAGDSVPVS
# Method: RNA Bind-n-Seq
# Molecule type: RNA
# Medium: in vitro
# Concentration: 100 nM
# Notes: RNA with constant flanks, vertebrate orthologous sites, ends assumed
# Reference: input RNA pool
# Direction: higher = stronger binding
# Constant ends, left off below: GGGAGUUCUACAGUCCGACGAUC … CAACAGAGGAUUGAGCAUCA
Strand,bound/input enrichment
GUGACCUGGUACAAUGUACAUUUAUGUACCAUGUUCAUCCAUGUACAUUAAACUCCUAGCCAUAGAAGUAGAAUCUGGUAUUUUUGAAAGGUUUUCAUUGCUGUGUAUUCUCACUCAUGG,0.449 ratio
UUCCCCCUCCCCUCAGGAUGGGGUGGGGGGAGCCCAUGAUGACCCUCAGCUGUUCCAAUCCAGUAGUUUUUUUUUUUUUUUUCUUUUUAAAAUUACUGUAUUUAUUAUGACGACGGUGAC,1.22 ratio
CUGGGAAAAGUUCUUCAAGUGGGAGCAGUUUAAAAAAGAAUAAACAAAAUGCUGUUUCUCCUGAAAAGUCAGGAGAAAAUAAAUCAUGUAAGACAGACAGUUGUACUCCUGGAUGUACAA,0.48 ratio
UUUUAUUGAUCAGGUCUGUAAAUGUGUACUAAAAAAAUCAGAGUUUAUUUAUAAACAGAAUAGUUUAUUUAAAAAGAAGGUCUUACUUCAUCGAUAUUGUGGUAUGCAUUAAUUCCAUUU,0.207 ratio
UGGGGGCAUACUCUAUGGAGCUGCUGGACACUUAGCAUUGUUUGAUUUAGAACCUUGACAUACUAGGUAGGCUUGUGGGUUUGUUUGUUUUUUUUAAUUUAAUGAUAUUAAGACUUAAUU,1.51 ratio
CGGCCAACUCCAUCAUCGGACGUGCCGCUCACAUCGCCGUGCUCGACUCGGAGAUAUUUCUGGAGAAGUUUUUCCUCGUCGCAGGCCUGAAGUAUUUCCGAUAGGUUGGUGUGGCAGCCA,0.284 ratio
CCACAUUAGCACCCUGCCAGCCUACCAGCCUCUCUGUGCACAGCUUCUAAUGUUAUGAUCUAGCUAGAUUUUUAUUUAAAAUAUGAAAAACUGCUUUUCCCAAGACGUUUUUUAAAAGGA,0.908 ratio
AAAACUCAGGUUUUAUUUAUUUUGAAAUUAAGCCAACUAUAAAUCUAAUUUAUUACUAAAUAUAAUCUUAAAAGAUUUUUAUGGCUGAACUCUUGAUAGGGACUUCAUACUCCUUACCUU,0.0778 ratio
